Measured values pooled from the literature.
Numbered parts are unrelated; each lists some results of a single study. Substitutions count along the parent as printed.

Study 1 — method: protein-binding microarray; form: double-stranded DNA, one strand shown; sample: in vitro; tested at: 250 nM; setting: 60-bp whole probe; added: salmon DNA 0.4 mg/ml; reference: random background probes; reading: higher = stronger binding; constant ends, left off below: GCCTAGCAC … GTCTTGATTCGCTTGACGCTGCTG
Target: Interferon regulatory factor 5, full length, phosphomimetic (IRF5, Homo sapiens, UniProt Q13568-2, residues 1-514, K96S/S451D/S453D/S456D/S462D)
| Sequence | log fluorescence [z-score] |
| --- | --- |
| GTTTGTCCCTATTTAAGATAGTGCTAG | 0.354 |
| TTAGTACTGGGGTATCGATTAGTGCTA | 2.13 |
| ACCCTCATTCTACTATCGATGTGCTAG | 5.04 |
| TCATATAGGTTGTTTCTAACTGTGCTA | 0.776 |
| TCATGTGCCCATCTCTGACTGTGCTAG | -0.276 |
| GACGAATTCAGTTCCGAGACGTGCTAG | 0.063 |
| GACGATATCGACACTGGGGACGTGCTA | 1.23 |
| GCTGTCATCGATTTCTTCCCGTGCTAG | 0.701 |
| TTAGGCATCGGGTTTCGGTTAGTGCTA | 7.56 |
| TTAGATTTCTGGTTTCGATTAGTGCTA | 9.14 |
| CACGGACTGGGTATCGGGACGTGCTAG | 0.449 |
| TCATGTTTTTTTCTACTTCTGTGCTAG | 1.41 |
| TTAGGACTGGATCTCGGTTAGTGCTAG | -0.172 |
| GGTGTCTAGGTTAGGGATTAGTGCTAG | -0.334 |
| CACGGTCTCCTTCTCCTGACGTGCTAG | -0.0176 |
| TTAGATATCAGGCTGGATTAGTGCTAG | 0.476 |
| GACGACATCGGGTATCGAGACGTGCTA | 0.581 |
| TTAGATTTCGAGTATCGATTAGTGCTA | 7.65 |
| GACGGTCTCGGGTTCGGGACGTGCTAG | -0.235 |

Study 2 — method: EMSA with sequencing; form: double-stranded DNA, one strand shown; sample: in vitro; tested at: 10 and 20 nM; reference: negative control set to 0; reading: higher = stronger binding
Target: Hepatocyte nuclear factor 3-alpha (Foxa1, Mus musculus, UniProt P35582, residues 1-468, full length assumed)
Chain of UniProt P35582 (whole entry, looked up): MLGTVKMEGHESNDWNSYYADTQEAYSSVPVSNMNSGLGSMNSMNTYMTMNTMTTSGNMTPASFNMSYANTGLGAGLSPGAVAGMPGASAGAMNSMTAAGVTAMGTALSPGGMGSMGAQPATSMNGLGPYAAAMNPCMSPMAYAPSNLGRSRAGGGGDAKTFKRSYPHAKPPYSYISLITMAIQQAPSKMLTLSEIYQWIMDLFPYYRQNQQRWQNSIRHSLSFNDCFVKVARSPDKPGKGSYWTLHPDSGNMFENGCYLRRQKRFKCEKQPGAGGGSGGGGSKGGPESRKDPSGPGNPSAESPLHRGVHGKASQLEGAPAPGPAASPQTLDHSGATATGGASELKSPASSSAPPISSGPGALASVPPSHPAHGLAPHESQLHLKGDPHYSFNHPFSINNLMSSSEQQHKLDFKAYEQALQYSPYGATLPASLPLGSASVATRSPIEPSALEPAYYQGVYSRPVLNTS
Setting: whole designed probe, mean of two concentrations, ends assumed
Constant ends, left off below: GTGAGCGGTGCCCATTGATGGGGAAC … TTTCACTGGGATCGTGGGGAC
| Sequence | normalised bound fraction [ratio] |
| --- | --- |
| TCTAAATCTAATCAATTAAAATGGCTTTTTATAAGTAGCTGGATTTTTATGACTGCAAATATTGCTTTCCTGCTTATTTTCCTTCTAATCCTGTGTTTACTTAGCTAGTTCAAGGAGTCAAGGCAGTACAGTGTATATAAGGAAGGGCTTTGGCATTAGTCAACTCTGGGTCATATCCTAGTTTCCCAGTTAC | 0.461 |
| TCGGCCAGCCTGGCTTCTGCGCCCCGCCAGGAGGTCGCGGAGCGGAGCGCGGCCAGGAAGTGAGCTGAGAGTGACAGCTCCCCCCACGCTGTTTGTTTATTCATGACTCATTCTCTCCACACACTGGCTCTTCTTTCTTTCGGGAGGAGGGGAGAAAGGAGCGGGAGGGCGGGCGGGCAGGGGAGAGGCAGGC | 0.342 |
| ATCTTCCCCCTCTTCCTTGCCCCACCAGCTCACCTTCCCGGGTTATTTGCAGATAGGAAAATAAATAAAGCCGGCATTCGTTAACCCTCGATGAATCATGACTGCCAGAGCAAACAGATCTAACATGGTCCTTTGGCGACGCCAGGCTCCGGGAGAGCAAAGCACCGTGTCAGGGCCATGATCCGGGGTGGCC | 0.39 |
| GAAACTGCTAATGATGAACCATTCTGAATGCAAGCTTCCATTTACTTTACAGTACTGGATTTCTCTATGGGCCTACAGGAATGTATGGCAAAGTAATTTAGGAAACAGATAAGTGAAATAGGTCATAAGGATCTGTAATTAATTTCTCAATTTCTTCATTGTATCTGTAATCAATTTCTCAATTTCTTCATTG | -0.0292 |
| ATCTTCCCCCTCTTCCTTGCCCCACCAGCTCACCTTCCCGGGTATCTGCAAATAAGGAAAATAAATAAAGCCGGCATTCGTTAACCCTCTTCTGGCGCAAACTGCTGTTTGCTCTGGATGAATCATGGTCCTTTGGCGACGCCAGGCTCCGGGAGAGCAAAGCACCGTGTCAGGGCCATGATCCGGGGTGGCC | 0.335 |

Study 3 — method: universal PBM; form: double-stranded DNA, one strand shown; sample: in vitro; tested at: not given; reading: higher = stronger binding
Target: Sal-like protein 4, full length isoform B (SALL4, Homo sapiens, UniProt Q9UJQ4-2, residues 1-616)
Setting: 8-mer, flanks averaged, mean of replicates
| Sequence | E-score |
| --- | --- |
| GGGGGTCA | -0.224 |
| AGCGGGCA | -0.202 |
| GCGCCCCC | -0.352 |
| AAAGACGA | 0.117 |
| CGTGAAAA | 0.102 |
| CACTTATC | 0.137 |
| CTCAAGCC | -0.295 |
| CGAGCTCG | -0.25 |
| AGCTGGAC | -0.082 |
| AGTCGGCC | -0.294 |
| CGTGAGAC | -0.0411 |
| CTGCGAAA | -0.0163 |
| GCATCGCC | -0.122 |
| CAGCTACA | -0.00552 |
| CCAAGGAG | -0.158 |
| ATATCCTG | 0.104 |
| ACTATTCT | -0.00695 |
| GAAGCTAC | -0.0238 |
| AGCATCCA | -0.0821 |

Study 4 — target: CCND1, cyclin fold, Cln2 fusion (human); method: yeast growth competition, sequencing; sample: yeast; setting: weak parent motif; reference: not given; reading: higher = stronger binding
Starting sequence: ORC1 docking peptide (human); PRARKRLELGNLG; partner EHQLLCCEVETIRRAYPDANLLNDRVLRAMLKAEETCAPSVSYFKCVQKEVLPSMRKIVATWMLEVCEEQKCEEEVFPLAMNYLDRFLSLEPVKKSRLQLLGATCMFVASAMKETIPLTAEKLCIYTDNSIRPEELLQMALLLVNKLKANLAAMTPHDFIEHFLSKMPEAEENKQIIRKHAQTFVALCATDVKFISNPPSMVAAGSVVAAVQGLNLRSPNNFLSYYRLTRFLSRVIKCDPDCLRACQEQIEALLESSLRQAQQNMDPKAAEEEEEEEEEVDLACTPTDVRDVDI
| Substitution | normalised enrichment score |
| --- | --- |
| PRALKRLELGNLG [R4L] | -0.0128 |
| PRARKRNELGNLG [L7N] | -0.369 |
| PSARKRLELGNLG [R2S] | -0.327 |
| PRLRKRLELGNLG [A3L] | -0.511 |
| PRAAKRLELGNLG [R4A] | -0.00538 |
| PRARKRLELGNFG [L12F] | 0.148 |
| PRARKRLELGTLG [N11T] | 0.196 |
| PRARIRLELGNLG [K5I] | -0.0636 |
| IRARKRLELGNLG [P1I] | -0.0821 |
| PRCRKRLELGNLG [A3C] | 0.248 |
| VRARKRLELGNLG [P1V] | -0.674 |
| PLARKRLELGNLG [R2L] | -0.571 |
| PRARPRLELGNLG [K5P] | 0.794 |
| PRACKRLELGNLG [R4C] | -0.277 |
| PRARKRQELGNLG [L7Q] | -0.249 |
| PRAPKRLELGNLG [R4P] | -0.049 |
| PRTRKRLELGNLG [A3T] | 0.317 |
| LRARKRLELGNLG [P1L] | -0.428 |
| PRARKRLELYNLG [G10Y] | 1.3 |
| PWARKRLELGNLG [R2W] | 0.563 |
| PRARKRLELGCLG [N11C] | 0.209 |
| PRARKRWELGNLG [L7W] | 0.203 |
| PRARERLELGNLG [K5E] | -0.0156 |
| PRARARAELGNLG [K5A L7A] | -0.119 |
| PRARKRLELENLG [G10E] | 0.0437 |

A few entries again (study 4):
| Substitution | normalised enrichment score |
| --- | --- |
| PRLRKRLELGNLG [A3L] | -0.511 |
| PRAAKRLELGNLG [R4A] | -0.00538 |
| PRARKRLELGNFG [L12F] | 0.148 |
| PRARKRLELGTLG [N11T] | 0.196 |
| PRARIRLELGNLG [K5I] | -0.0636 |
| IRARKRLELGNLG [P1I] | -0.0821 |
| PRCRKRLELGNLG [A3C] | 0.248 |
| VRARKRLELGNLG [P1V] | -0.674 |
| PLARKRLELGNLG [R2L] | -0.571 |
| PRARPRLELGNLG [K5P] | 0.794 |
| PRACKRLELGNLG [R4C] | -0.277 |
